Experimental data gathered from unrelated publications.
Protocols differ between the studies behind these lines. ± marks the error that the study gave.

C#CCn1c(-c2ccccc2)cc2ccccc21 — inhibition (HEK293 NF-κB luciferase reporter; reporter gene, measured: NF-κB; 50 µM, 6 h, with: TNFα): 46.2 ± 2.1%
TAGSCLRKFSTM — cell adhesion (bovine aortic endothelial cells; peptide, peptide-coated plate; 10 to 25 µg/well, 30 to 60 min, 37 °C): ~25%
LRRFSTMPFMFSNINNVSNF — inhibition (HUVEC; cell migration, real-time cell analysis; peptide; 50 µM, with: full medium chemoattractant; reference: vehicle): 92.6 ± 0.97%
CNc1ncnc2c1ncn2[C@H]1C[C@H](OP(=O)(O)O)[C@@H](COP(=O)(O)O)O1 — insulin secretion (MIN6; antagonist, ELISA; 10 µM, with: 2-MeSADP 10 µM, glucose 16.7 mM): inhibited
Cc1nc(Nc2ncc(C(=O)Nc3c(C)cccc3Cl)s2)cc(N2CCN(CCO)CC2)n1 — therapeutic window (NIH3T3 in PANC/NIH microtissues; fibroblast toxicity; 168 h, chronic toxicity, unit not given; reference: AC50 ATP over AC50 NanoLUC, day 7): 3.58
Ac-ARPVA-NH2 (N-acetyl, C-amide) — ID50 (GM7373 bovine endothelial; cell proliferation, inhibitor; peptide; 24 h, with: 0.55 nM FGF2, 0.4% FCS): > 1000 µM
CC(C)C[C@H](NC(=O)CNC(=O)c1cc(Cl)ccc1Cl)B(O)O — neuronal apoptosis (SK-N-SH; annexin V flow cytometry; 100 nM, 24 h, conditioned media from pretreated astrocytes, with: inflammatory stimulus; reference: DMSO): no effect
CC(=O)N[C@@H](CS)C(=O)O — protection from cell death (NCI-H929; annexin V flow cytometry; 10 mM, 30 min pretreatment, with: HYD1): 32%
CC1=C(CC(=O)Oc2ccc(OC(=O)CCCO[N+](=O)[O-])c(C(=O)Oc3ccc(-c4cc(=S)ss4)cc3)c2)c2cc(F)ccc2/C1=C\c1ccc([S+](C)[O-])cc1 (stereo not shown) — IC50 ratio (IMR-90 and cancer cell lines; cell growth; 24 h; reference: IMR-90 over cancer cells): 70 to 270 fold
COc1cccc(-c2cc3ccccc3[nH]2)c1 — viability (HEK293; cell growth or viability; 50 µM): 65.8%
CN(C)c1ccc(C2Nc3ccc(Br)cc3NC3=C2C(=O)CC(C)(C)C3)cc1 (stereo not shown) — EC50 (H4; cytoprotection; with: thapsigargin 7.5 µM): ~13 µM
CSTSCG — adherent cells (bovine aortic endothelial cells; peptide; 2 µg coated per well, 30 to 60 min; reference: thrombospondin-coated wells): 39%
Ac-APCRA-NH2 (N-acetyl, C-amide) — ID50 (GM7373 bovine endothelial; cell proliferation, inhibitor; peptide; 24 h, with: 0.55 nM FGF2, 0.4% FCS): 100 µM
O=C(/C=C/N1C[C@H]2C[C@@H]1CN2c1ccccn1)c1ccccc1O — effective concentration (C2C12 myoblasts; myoblast differentiation): 1 µM
exonuclease 1 (human) — cells without foci (NIH3T3; confocal microscopy, measured: YFP-tagged compound; concentration not given, PCNA replication foci, with: co-transfected CFP-PCNA): 40%
RXRRXRRXRRXRXB (PMO conjugate) — cellular uptake (pLuc705 cells; flow cytometry; peptide; 2 µM, 24 h, serum-free, unit not given; higher = more uptake): 70
CC1(C)S[C@@H]2[C@H](NC(=O)Cc3ccccc3)C(=O)N2[C@H]1C(=O)O — ID50 (mES-D3 cell; cardiomyocyte differentiation, RT-PCR, measured: MHC; 240 h): 980 ± 24.7 µg/mL
COc1ccc(CC2COc3cc(OC)c(OC)c(OC)c3C2=O)cc1O (stereo not shown) — GI50 (ARPE-19; cell growth or viability, resazurin; 48 h): > 100000 nM
CCN1C(=O)/C(=C\c2ccc(Cl)cc2)S/C1=N/N=C(\C)c1ccccn1 — inhibition (Vero; cell growth or viability, SRB; 100 µg/mL, 48 h): 53.3%
RXRXRXRXRXRXRXRXB (PMO conjugate) — cellular uptake (pLuc705 cells; flow cytometry; peptide; 2 µM, 24 h, 10% serum, unit not given; higher = more uptake): 92
C#C[C@@]1(O)[C@@H](CO)O[C@@H](n2cc(Br)c3c(N)ncnc32)[C@@H]1O — GI50 (SR; cell growth or viability, SRB; 48 h): 64 nM
Cn1c(-c2ccccc2)cc2ccccc21 — viability (HEK293; cell growth or viability; 50 µM): 106%
CN(C)c1ccc(C2Nc3ccc(C(=O)c4ccccc4)cc3NC3=C2C(=O)CC(C)(C)C3)cc1 (stereo not shown) — EC50 (H4; cytoprotection; with: thapsigargin 7.5 µM): 15.1 ± 0.67 µM
CCN1C(=O)CS/C1=N/N=C(\C)c1ccccn1 — inhibition (Vero; cell growth or viability, SRB; 100 µg/mL, 48 h): 67.3%
Fc1ccc(-c2cc3ccccc3[nH]2)cc1 — viability (HEK293; cell growth or viability; 50 µM): 84.3%
COC(=O)C[C@](O)(CCCC(C)(C)O)C(=O)O[C@@H]1C(OC)=C[C@]23CCCN2CCc2cc4c(cc2[C@H]13)OCO4 — combination index (RS4-11; 72 h, with: cytotoxic drug; below 1 means synergy): 0.89 ± 0.12
C=C(C[C@H](N)C(=O)O)C(=O)Nc1ccccc1 — lowest significantly active concentration (MCF7 cells; cell growth inhibition; 72 h; reference: vehicle): ≥ 1 µM
CSTSCR — adherent cells (bovine aortic endothelial cells; peptide; 2 µg coated per well, 30 to 60 min; reference: thrombospondin-coated wells): 65%
CC[C@H](C)[C@H](N)C(=O)N[C@H]1CSSC[C@@H](C(=O)N[C@H](C(N)=O)[C@@H](C)O)NC(=O)[C@H](CCCNC(=N)N)NC(=O)[C@H](Cc2c[nH]cn2)NC(=O)[C@H](Cc2c[nH]cn2)NC(=O)CNC(=O)[C@H](Cc2c[nH]c3ccccc23)NC(=O)[C@H](CC(=O)O)NC(=O)[C@H](CCC(N)=O)NC(=O)[C@H](C(C)C)NC(=O)[C@H](C(C)C)NC1=O — complement activation (human fetal RPE cells; fluorescence, measured: C5b-9/ApoE; 1 µM, with: 10% human complement serum; reference: positive control): no effect
CC1(C)CC(=O)C2=C(C1)Nc1cc(-c3ccccc3)ccc1NC2c1ccc(N2CCOCC2)cc1 (stereo not shown) — EC50 (H4; cytoprotection; with: thapsigargin 7.5 µM): 17 ± 1.41 µM
CSCC[C@@H]1NC(=O)[C@H](CCCNC(=N)N)NC(=O)[C@H](C(C)C)NC(=O)[C@H](C(C)C)NC(=O)[C@H]([C@@H](C)O)NC(=O)[C@H](Cc2c[nH]c3ccccc23)NC(=O)CNC(=O)[C@H](CO)NC(=O)[C@H](Cc2ccc(O)cc2)NC1=O — time in mitosis (MCF7, synchronized; microinjection, time-lapse microscopy; 50 µM): 3 h
Ac-ARPMA-NH2 (N-acetyl, C-amide) — ID50 (GM7373 bovine endothelial; cell proliferation, inhibitor; peptide; 24 h, with: 0.55 nM FGF2, 0.4% FCS): > 1000 µM
c1ccc(Cn2c(-c3ccccc3)cc3ccccc32)cc1 — viability (HEK293; cell growth or viability; 50 µM): 96.3%
Ac-ARPCAPGAPAEARL-NH2 (N-acetyl, C-amide) — ID50 (GM7373 bovine endothelial; cell proliferation, inhibitor; peptide; 24 h, with: 0.55 nM FGF2, 0.4% FCS): 10 µM
Oc1c(Cl)cc(Cl)cc1Sc1cc(Cl)cc(Cl)c1O — efferocytosis (bone marrow-derived macrophages; flow cytometry; 10 µM, 6 h, with: apoptotic Jurkat T cells; reference: vehicle): decreased
Ac-ARPSA-NH2 (N-acetyl, C-amide) — ID50 (GM7373 bovine endothelial; cell proliferation, inhibitor; peptide; 24 h, with: 0.55 nM FGF2, 0.4% FCS): > 1000 µM
LRRFSTMPFMFCNINNVCNF — inhibition (HUVEC; cell proliferation, WST-1; peptide; 100 µM, 72 h; reference: vehicle): 67.5 ± 2.58%
CS(=O)(=O)CCNCc1ccc(-c2ccc3ncnc(Nc4ccc(OCc5cccc(F)c5)c(Cl)c4)c3c2)o1 — viability (ex vivo 231-BR-HER2 cells; MTT; 8 or 10 µM, 72 h; reference: lines from vehicle-treated mice): no effect
c1ccc(-c2cc3ccccc3[nH]2)cc1 — inhibition (HEK293 NF-κB luciferase reporter; reporter gene, measured: NF-κB; 50 µM, 6 h, with: TNFα): 76.3 ± 8.2%
COc1ccc(/C=C\c2cc(OC)c(OC)c(OC)c2)cc1O — maximal cord disruption (ECFC and ADSC co-culture; endothelial tube formation; highest concentration tested; reference: VEGF 20 ng/mL): > 96%
Clc1ccc(-c2cc3ccccc3[nH]2)cc1Cl — inhibition (HEK293 NF-κB luciferase reporter; reporter gene, measured: NF-κB; 50 µM, 6 h, with: TNFα): 68.2 ± 6.3%
COc1cccc2c1C(=O)c1c(O)c3c(c(O)c1C2=O)C[C@@](O)(C(C)=O)C[C@@H]3O[C@H]1C[C@H](N)[C@H](O)[C@H](C)O1 — combination index (RS4-11; 72 h, with: cytotoxic drug; below 1 means synergy): 0.89 ± 0.03
CCN(CC)c1ccc(C2Nc3ccc(C(F)(F)F)cc3NC3=C2C(=O)CCC3)cc1 (stereo not shown) — EC50 (H4; cytoprotection; with: thapsigargin 7.5 µM): > 50 µM
CO/C1=C\C(C)=C\[C@@H](C)[C@@H](O)[C@@H](C)C/C(C)=C/C=C/[C@H](OC)[C@@H]([C@@H](C)[C@@H](O)[C@H](C)[C@@]2(O)C[C@@H](O)[C@H](C)[C@@H](C(C)C)O2)OC1=O — cell surface pH (CHO-K1; fluorescein-WGA ratio imaging; concentration not given, 37 °C, medium pH 7.4): 9.06 ± 0.06
COc1ccc2cc(-c3cc4ccccc4[nH]3)ccc2c1 — inhibition (HEK293 NF-κB luciferase reporter; reporter gene, measured: NF-κB; 50 µM, 6 h, with: TNFα): 94.4 ± 1.6%
NC(=O)c1ccc(-c2nc(-c3ccc4c(c3)OCO4)c(-c3ccccn3)[nH]2)cc1 — collagen content (NIH3T3; inhibitor, Sirius red staining; 5 µM, 48 h, with: TGF-β1 5 ng/mL; reference: TGF-β1 alone): inhibited
